Assay results from different studies.
Numbered parts are unrelated; each lists some results of a single study. Values joined by “and” are separate records of one study, mostly repeats; a detail may differ.
Sequence of UniProt P41143 (whole entry, unmodified, looked up): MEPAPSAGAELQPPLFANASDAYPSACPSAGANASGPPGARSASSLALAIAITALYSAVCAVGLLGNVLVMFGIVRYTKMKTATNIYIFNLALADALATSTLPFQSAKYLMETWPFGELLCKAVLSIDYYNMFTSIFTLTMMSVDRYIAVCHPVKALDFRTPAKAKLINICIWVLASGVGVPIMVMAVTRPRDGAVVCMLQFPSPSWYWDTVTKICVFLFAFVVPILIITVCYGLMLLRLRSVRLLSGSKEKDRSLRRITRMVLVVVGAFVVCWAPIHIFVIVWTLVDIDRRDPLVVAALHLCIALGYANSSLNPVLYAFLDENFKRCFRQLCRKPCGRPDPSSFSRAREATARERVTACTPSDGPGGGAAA
Sequence of UniProt P32300 (whole entry, looked up): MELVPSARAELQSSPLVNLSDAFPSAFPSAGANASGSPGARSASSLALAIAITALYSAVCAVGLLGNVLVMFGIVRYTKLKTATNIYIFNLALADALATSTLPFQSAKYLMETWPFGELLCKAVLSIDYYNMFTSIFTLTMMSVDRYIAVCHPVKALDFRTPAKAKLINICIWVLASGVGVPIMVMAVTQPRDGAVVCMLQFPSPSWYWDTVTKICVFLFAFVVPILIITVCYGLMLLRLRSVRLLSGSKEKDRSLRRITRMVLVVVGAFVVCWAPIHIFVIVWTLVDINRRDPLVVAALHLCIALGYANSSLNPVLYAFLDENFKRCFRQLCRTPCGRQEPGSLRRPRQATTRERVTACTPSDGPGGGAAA

Series 1 — host: Crbn I391V mouse, MC-38 tumour
Structure (SMILES): Cn1cc(-c2cccc(CN3CCC4(CC3)COc3c4ccc4c3CN([C@H]3CCC(=O)NC3=O)C4=O)c2)cn1
| conditions | tumour volume |
| --- | --- |
| oral, 30 mg/kg once daily, day 7 | 173 mm3 and 361 mm3 and 150 mm3 and 285 mm3 |
| 30 mg/kg, day 15, together with: anti-LAG3 antibody 10 mg/kg weekly | 267 mm3 and 477 mm3 and 260 mm3 and 53.3 mm3 and 988 mm3 and 992 mm3 and 353 mm3 and 947 mm3 |
| oral, 30 mg/kg once daily, day 14 | 265 mm3 and 402 mm3 and 80.1 mm3 and 274 mm3 and 201 mm3 |
| oral, 30 mg/kg once daily, day 22 | 1620 mm3 and 53.4 mm3 and 773 mm3 and 1060 mm3 and 916 mm3 |
| oral, 30 mg/kg once daily, day 1 | 105 mm3 and 100 mm3 and 103 mm3 and 115 mm3 and 85.7 mm3 |
| 30 mg/kg, day 4, together with: anti-LAG3 antibody 10 mg/kg weekly | 104 mm3 and 116 mm3 and 110 mm3 and 118 mm3 and 248 mm3 |
| oral, daily, 30 mg/kg, day 8, anti-PD1 combination study | 266 mm3 and 418 mm3 and 217 mm3 and 347 mm3 and 405 mm3 |
| oral, daily, 30 mg/kg, day 5, anti-PD1 combination study | 233 mm3 and 247 mm3 and 200 mm3 and 269 mm3 and 220 mm3 |
| oral, daily, 30 mg/kg, day 12, anti-PD1 combination study | 284 mm3 and 215 mm3 and 224 mm3 and 383 mm3 and 584 mm3 |
| oral, daily, 30 mg/kg, day 22, anti-PD1 combination study | 738 mm3 and 346 mm3 and 1820 mm3 and 2000 mm3 and 356 mm3 |
| 30 mg/kg, day 48, together with: anti-LAG3 antibody 10 mg/kg weekly | 1020 mm3 |

Series 2 — organism: Staphylococcus aureus; strain: USA300; concentration: 2 x MIC
SMILES: CCCCC[C@@H]1CC(=O)N[C@@H](C(C)C)C(=O)N[C@H](CCCNC(=N)N)C(=O)N[C@@H](C(C)C)C(=O)NCC(=O)N2CCC[C@H]2C(=O)N[C@@H](CC(C)C)C(=O)N[C@H](CCCNC(=N)N)C(=O)N[C@@H](CCC(=O)O)C(=O)N[C@H](Cc2ccc(O)cc2)C(=O)N[C@H](Cc2c[nH]c3ccccc23)C(=O)NCCCC(=O)O1
| conditions | viable cells |
| --- | --- |
| 30 min | 1700 CFU/mL and 1800 CFU/mL and 2100 CFU/mL |
| 0 min | 4.1e+08 CFU/mL and 4.7e+08 CFU/mL and 3.9e+08 CFU/mL |
| 180 min | 700 CFU/mL and 500 CFU/mL and 800 CFU/mL |
| 60 min | 1200 CFU/mL and 1500 CFU/mL and 1400 CFU/mL |
| 15 min | 3700 CFU/mL and 4000 CFU/mL and 4700 CFU/mL |

Series 3
Compound: N=C(N)NCCCCCCN1CCC23c4c5ccc(O)c4OC2c2nc4ccccc4cc2CC3(O)C1C5 (stereo not drawn)
| target | test | test system | EC50 [nM] |
| --- | --- | --- | --- |
| Delta-type opioid receptor, with Gi2 (OPRD1, Homo sapiens, UniProt P41143) |  | human cells | 20.9 |
| Delta-type opioid receptor, with Gi1 (OPRD1, Homo sapiens, UniProt P41143, S311A) | G protein activation, agonist |  | 1.62 |
| Delta-type opioid receptor, with Gi1 (OPRD1, Homo sapiens, UniProt P41143, S135A) | G protein activation, agonist |  | 11 |
| Delta-type opioid receptor, with Gi3 (OPRD1, Homo sapiens, UniProt P41143) |  | human cells | 12.8 |
| Delta-type opioid receptor, with Gz (OPRD1, Homo sapiens, UniProt P41143) |  | human cells | 4.33 |
| Delta-type opioid receptor, with Gi1 (Oprd1, Mus musculus, UniProt P32300) | agonist, cell-based |  | 8.3 |
| Delta-type opioid receptor, with GoA (OPRD1, Homo sapiens, UniProt P41143) |  | human cells | 10.2 |
| Delta-type opioid receptor, with Gi1 (OPRD1, Homo sapiens, UniProt P41143, D95A) | G protein activation, agonist |  | 204 |
| Delta-type opioid receptor, with GoB (OPRD1, Homo sapiens, UniProt P41143) |  | human cells | 8.14 |

Other studies, line by line — cell line: human islet β-cells; read-out: β-cell death; host: human; concentration: 10 µM; time: 24 h; together with: 20 mM glucose + 500 µM palmitate; baseline: GFP+ cells
| Compound | dead β-cells |
| --- | --- |
| O=C(COc1ccccc1P(=O)(O)O)NCC(F)(F)c1ccccc1 | 17.7% and 6.39% and 9.43% and 7.51% |
| NS(=O)(=O)c1ccccc1OCC(=O)NCC(F)(F)c1ccc(F)c(F)c1 | 33.6% and 37.4% and 63.4% and 34.3% |
